Published values from different studies.
Each line is one published result; not all experiments were run side by side. Several values in a cell are separate wells, animals, samples, runs or records. Numbers after ± are the reported error. In brackets after ≈: the same amount, converted by molar mass.

COc1ccc(CNc2nc(-c3ccc(C(=O)O)cc3)nc3c2c2ccccc2n3C)cc1Cl  body weight (NSG mice; dose not given, day 5 of treatment): 21.8 g and 22.5 g and 21.1 g and 24 g
O=C1NCCc2nc(OCc3cccc(F)c3)ccc21  Irwin test score (refers to: Tremors; Sprague-Dawley rat male; oral, 100 mg/kg, 30 min; direction not given): 0
COc1ncc(-c2nc3c(n2C(C)C)[C@H](c2ccc(Cl)cc2)N(c2cc(Cl)cn(C)c2=O)C3=O)c(OC)n1  geometric mean Cmax (human patients, plasma; oral, 150 mg): 1500 ng/mL
COCCOc1cnc2ccn([C@H](C)c3nnc4c(F)cc(-c5cnn(C)c5)cn34)c(=O)c2c1  Ctrough (patients, plasma; oral, 250 mg twice daily, day 1 predose, 500 per day): 1860 ng/mL
COc1cc(Nc2ncc3c(n2)-c2ccc(Cl)cc2C(c2c(F)cccc2OC)=NC3)ccc1C(=O)O  patients with adverse event (refers to: acneiform rash, grade 2; cancer patients, phase 1/2; oral, dose not given, added: pembrolizumab): 4%
C[C@H](CCC(=O)O)[C@H]1CC[C@H]2[C@@H]3[C@H](O)C[C@@H]4C[C@H](O)CC[C@]4(C)[C@H]3CC[C@]12C  relative peak deviation (human, plasma; endogenous baseline diurnal; reference: daily mean concentration): 195 ± 36%
CC[C@H](C)C(=O)O[C@H]1C[C@@H](C)C=C2C=C[C@H](C)[C@H](CC[C@@H]3C[C@@H](O)CC(=O)O3)[C@H]21  remaining compound (dog, Beagle, both sexes, whole blood; 5 µM, 60 min): 86%
C[C@H]1CN(C(=O)CC#N)[C@]12CCN(c1ncnc3[nH]ccc13)C2  IC80 (IL-4 secretion; human whole blood; blood/plasma ratio corrected): 0.057 µg/mL
C=CC[C@@H]1/C=C(\C)C[C@H](C)C[C@H](OC)[C@H]2O[C@@](O)(C(=O)C(=O)N3CCCC[C@H]3C(=O)O[C@H](/C(C)=C/[C@@H]3CC[C@@H](O)[C@H](OC)C3)[C@H](C)[C@@H](O)CC1=O)[C@H](C)C[C@@H]2OC  trough level (rhesus monkey kidney transplant, blood; subcutaneous, 0.1 mg/kg): 8 to 12 ng/mL
c1ccc(CN(CCN(Cc2ccccn2)Cc2ccccn2)Cc2ccccn2)nc1  hemolysis (human red blood cells; 200 µM, 1 h, pH 7.2, 37 °C): ≤ 1%
NC1(C(=O)N[C@@H](CCO)c2ccc(Cl)cc2)CCN(c2nc[nH]c3nccc2-3)CC1  incidence of Anaemia (metastatic CRPC patients; 480 mg b.i.d., grade 3 to 4, treatment-related, added: enzalutamide 160 mg daily): 0%
CNC(=O)c1cccc(-c2ccc(O[C@H]3O[C@H](CO)[C@@H](O)[C@H](O)[C@@H]3O)c(C)c2)c1  urinary recovery (male Sprague-Dawley rat, urine; oral, 10 mg/kg, 24 h, mean; reference: dose): 0.24%
CC(C)n1c(Nc2cccnc2)nc2cnc(Nc3ccc(N4CCN(C)CC4)cc3)nc21  subjects with grade 3 hypertriglyceridemia (healthy male humans; oral, dose not given, drug interaction study, all arms): 2.4%
CC(C)(C(=O)N1CCOc2c(C#N)cncc2C1)C(F)F  subjects with tachycardia TEAE (human, both sexes; oral, 20 mg single dose): 16.7%
O=C(Nc1cnccc1Cl)N1CCN(Cc2ccc3c(c2)OC(F)(F)O3)CC1  dose-normalized AUC(0-tau) (young men, plasma; oral, 75 mg once daily, day 10, normalized to 10 mg): 1510 ng·h/mL
O=[N+]([O-])c1cn2c(n1)OC[C@@H](OCc1ccc(N3CCCCC3)nc1)C2  aqueous solubility (aqueous buffer; pH 7.4): 22.7 µg/mL (≈ 63.2 µM)
CC(C)[C@H](C(=O)Nc1ccc(C(=O)NO)cc1)c1ccccc1  measured concentration (whole blood; 100 ng/mL, 0 h, 4 °C, stability on ice): 107 ng/mL
Cc1cc(C)c(CNC(=O)c2cc(Cl)c3c(c2C)O[C@@](C)([C@H]2CC[C@H](N(C)C)CC2)O3)c(=O)[nH]1  patients with TEAE (CTCAE v4.0, refers to: aspartate aminotransferase increased; human relapsed/refractory NHL; oral, 200 mg once daily, onset after cycle 1 day 1, overall treatment period): 16.7%
Cc1nc2ccc(OCc3ccc(C(F)(F)F)cc3)cc2[nH]1  oral bioavailability (Balb/c mice male; oral, 10 mg/kg; reference: intravenous 1 mg/kg): 34.8%
CC(C)[C@@H](CS(=O)(=O)C(C)C)N1C(=O)[C@@](C)(CC(=O)O)C[C@H](c2cccc(Cl)c2)[C@H]1c1ccc(Cl)cc1  oral bioavailability (FVB Abcb1a/b-/-Abcg2-/- mice; oral, 20 mg/kg): 31%
CCO[C@H]1CCN(Cc2c(OC)cc(C)c3[nH]ccc23)[C@H](c2ccc(C(=O)O)cc2)C1  unbound AUC(0-12) (severe hepatic impairment patients; oral, 200 mg, median): 9760 ng·h/mL
COCC(=O)N1CCC[C@H](C(=O)NCc2nc(-c3ccc(C#N)cc3)cs2)C1  unbound AUC (Sprague-Dawley rat, male, plasma; oral, 3 mg/kg): 1.3 µM·h
N=C(N)NCCNC(=O)C1(Nc2ccccc2)CCN(Cc2ccccc2)CC1  half-life (female Sprague-Dawley rats, plasma; oral, 50 mg/kg): 0.2 ± 0.1 h
O=C(O)CCC(=O)O.[2H]C([2H])([2H])Oc1cc(C)c2[nH]ccc2c1CN1CC[C@@H](C2CC2)C[C@H]1c1ccc(C(=O)O)cc1  subjects with sinus bradycardia TEAE (multiple ascending dose; healthy Chinese subjects; 50 mg twice daily): 25%
NS(=O)(=O)c1ccc(-n2nc(C(F)(F)F)cc2-c2ccc(CO)cc2)cc1  blood-to-plasma ratio (Sprague-Dawley rat; oral, 20 mg/kg of celecoxib, 8 h): 35.1
C=CCN1CC(=O)N2[C@@H](Cc3ccc(O)cc3F)C(=O)N(Cc3cccc(N4CC(N5CCN(CC)CC5)C4)n3)C[C@@H]2N1C(=O)NCc1ccccc1  treatment-related diarrhoea (advanced solid tumour patients; oral, 160 mg twice daily, any grade, dose-escalation): 50%
C=CC(=O)NC1CCN(c2ncc3ncnc(Nc4ccc(Oc5ccc6c(c5)ncn6C)c(C)c4)c3n2)CC1  participants with nasopharyngitis (human, male; oral, 240 mg, treatment-emergent adverse event): 6.3%
C[C@H]1CNC(=O)c2cnn3ccc(nc23)N[C@H](C)c2cc(F)ccc2O1  average steady-state concentration (human, plasma; recommended dose, total): 846 nmol/L
CNC(=O)c1ccc(-c2cnc3ncc(Cc4ccc5ncccc5c4)n3n2)cc1F  patients with adverse event (refers to: Dyspepsia; other cancer patients; oral, 600 mg twice daily, expansion cohort, grade 3-4): 0%
CCc1c(-c2ccccc2)c(-c2ccccc2)nn1-c1ccccc1-c1cccc(OCC(=O)O)c1  concentration (Sprague-Dawley rat, fat; oral, 10 mg/kg, 4 h): 1530 ng/g and 1010 ng/g
C[C@@]1(c2cc(NC(=O)c3ccc(C#N)cn3)ccc2F)C=CSC(N)=N1  dose-normalised AUC(0-inf) (elderly human, CSF; 150 mg, single dose): 2.59 ng·h/mL
Cc1ccc(Sc2ccccc2N2CCNCC2)c(C)c1  participants with TEAE (refers to: protein in urine; healthy adult men; oral, 5 mg daily, 12 days): 16.7%
CCc1cc(C(=O)NC)c2nccc(N3CCc4c(cc(Cn5ccnc5)cc4-c4cn(C)nc4C(F)(F)F)C3=O)c2c1  liver weight change (Sprague Dawley rat; oral, 50 mg/kg once daily, 7 days; reference: vehicle): 0.78%
Cc1cc2sc(N)nc2c2cccnc12  MRT(0-t) (female BALB/c mice, plasma; intraperitoneal, 30 mg/kg): 4.82 h
C[C@H](CCC(=O)NCC(=O)O)[C@H]1CC[C@H]2[C@@H]3CC[C@@H]4C[C@H](O)CC[C@]4(C)[C@H]3C[C@H](O)[C@]12C  relative peak deviation (human, plasma; endogenous control diurnal; reference: daily mean concentration): 184 ± 23%
CN/C(=N/CCSCc1nc[nH]c1C)NC#N  scaled intrinsic clearance (human, plasma): 9.32 mL/min/kg
COc1ccc2c(c1)CN(C(=O)CCN1CCC(Cc3ccccc3)CC1)CC[S@@+]2[O-]  blood concentration (beagle dog, male; intravenous, 8 mg/kg, day 1, 14-day toxicity study): 6440 ± 2110 ng/mL
Cn1cc([C@H]2C[C@H]3CSC(N)=N[C@@]3(c3ccc(F)cc3F)CO2)cn1  CSF concentration (male 129/SVE mouse, CSF; subcutaneous, 10 mg/kg, 6 h): 33 nM
C=CC(=O)Nc1cc(Nc2nccc(-c3cn(C4CC4)c4ccccc34)n2)c(OC)cc1N(C)CCN(C)C  MCV (BALB/c nude mouse, LU0387 xenograft, blood; oral, 40 mg/kg): 45.72 ± 0.323 fL
Cc1ccc([C@@H]2O[C@H](CO)[C@@H](O)[C@H](O)[C@H]2O)cc1Cc1ccc(-c2ccc(F)cc2)s1  urinary magnesium excretion change (Japanese type 2 diabetes patients; 200 mg, day 4, 24 h urine collection; reference: baseline): -11.8 mg
Cc1cc(Nc2ccc(S(F)(F)(F)(F)F)cc2)n2nc(C(C)(F)F)nc2n1  adverse event Diarrhoea (Plasmodium vivax malaria patients; oral, 800 mg): 28.6%
CO[C@H]1C[C@@H]2CC[C@@H](C)[C@@](O)(O2)C(=O)C(=O)N2CCCC[C@H]2C(=O)O[C@H]([C@H](C)C[C@@H]2CC[C@@H](OC(=O)NCCOCCOCCOCCOCCOCCOCCOCCOCCC(=O)N3CCc4cc(Cn5nc(-c6ccc7oc(N)nc7c6)c6c(N)ncnc65)ccc4C3)[C@H](OC)C2)C[C@@H](O)[C@H](C)/C=C(\C)[C@@H](O)[C@@H](OC)C(=O)[C@H](C)C[C@H](C)/C=C/C=C/C=C/1C  unbound Cmax (human patients, plasma; intravenous, 12 mg, cycle 1 day 15): 24.1 nM
Cc1cccc(CNC(=O)c2cn(CCNC(=O)c3ccccc3S)c3cc4c(cc3c2=O)OC(F)(F)O4)n1  half-life (Sprague-Dawley rat, male, whole blood; intramuscular, 30 mg/kg of parent drug): 11.4 h
CCCn1cc(C)c2c(=O)[nH]c(-c3cc(S(=O)(=O)N4CCN(CC)CC4)ccc3OCC)nc21  blood triglycerides increased (human; concentration not given, treatment-emergent adverse event): 16.7%
FC(F)(F)c1ccc(CNc2ccc(Cc3c[nH]c4ncc(Cl)cc34)cn2)cn1  treatment-related adverse events (refers to: Rash; patients with advanced solid tumours, non-TGCT cohort; oral, 1000 mg/day, grade 3 or higher): 0%
N#Cc1ccc2c(c1)[C@H]1CCCN(C(=O)c3ccc4[nH]cnc4c3)[C@H]1C2  SHBG level (human males; 20 mg, day 7): 36.3 nmol/L
CNCc1ccc(-c2[nH]c3cc(F)cc4c3c2CCNC4=O)cc1  AST/ALT increased incidence (human patients; oral, 600 mg twice daily, grade 5): 0%
C[C@H]1O[C@@H](O[C@H]2[C@@H](O)C[C@H](O[C@H]3[C@@H](O)C[C@H](O[C@H]4CC[C@@]5(C)[C@H](CC[C@@H]6[C@@H]5C[C@@H](O)[C@]5(C)[C@@H](C7=CC(=O)OC7)CC[C@]65O)C4)O[C@@H]3C)O[C@@H]2C)C[C@H](O)[C@@H]1O  subjects with adverse event (refers to: diarrhoea; healthy men; oral, dose not given, 8 days, treatment-emergent, crossover trial): 0%
O=C(O)CSc1nnc(Br)n1-c1ccc(C2CC2)c2ccccc12  body weight (KM mouse, chronic hyperuricaemia model; dose not given, day 14): 32.1 g and 28.4 g and 36.4 g and 33.8 g and 28.1 g and 32.8 g
Nc1ncnc2c1ncn2[C@H]1C[C@@H]2OP(=O)(O)OC[C@H]3O[C@@H](n4cnc5c(N)ncnc54)C[C@@H]3OP(=O)(O)OC[C@H]2O1  AST (non-tumor-bearing mice, serum; intravenous, 1 mg/kg, toxicity study): 200 ± 35.9 U/L
C[Si]1(C)O[Si](C)(C)O[Si](C)(C)O[Si](C)(C)O[Si](C)(C)O1  slope B, log KOA vs 1/T: 2470
CCN1/C(=C/C(C)=O)Sc2ccc(F)cc21  systolic blood pressure (cynomolgus monkey; oral, 10 mg/kg, 6 h post-dose): 123 ± 8 mmHg
CCn1c(=O)c(-c2cc(NC(=O)Nc3ccccc3)c(F)cc2Br)cc2cnc(N)cc21  unbound fraction (plasma protein binding, ultracentrifugation; healthy human subjects, plasma; 24 h post-dose): ≤ 0.5%
COc1cc(C(=O)N2CCC3(CC2)CC(=O)c2c(cnn2C(C)C)C3)cc(-c2ccc(C(=O)O)cc2)n1  total cholesterol change from baseline (human, fasting serum; 40 mg once daily, day 13, adjusted geometric mean): 2.1%
CCCCCCCCCCCCCCCC(=O)N[C@@H](CCC(=O)NCCCC[C@@H]1NC(=O)[C@H]([C@@H](C)CC)NC(=O)[C@@H](NC(=O)[C@@H]2CCCN2C(=O)[C@H](Cc2ccccc2)NC(=O)[C@H](Cc2c[nH]cn2)NC(=O)[C@@H](NC(=O)[C@H](CC(=O)O)NC(=O)CC(C)C)[C@@H](C)O)CSSC[C@@H](C(=O)N[C@@H](CCCCN)C(N)=O)NC(=O)CNC(=O)[C@H](CCCCN)NC(=O)[C@H](CO)NC(=O)[C@H](CCCNC(=N)N)NC(=O)[C@@H]2CCCN2C(=O)[C@H](CCC(=O)O)NC(=O)[C@H](Cc2ccccc2)NC1=O)C(=O)O  AUC(0-inf) share of total (healthy volunteers, plasma; subcutaneous, 45 mg; reference: parent plus metabolites): 55.2 ± 4.55%
